Results gathered from unrelated publications.
Protocols differ between the studies behind these lines. ± marks the error that the study gave.

| SMILES | assay | system | conditions | how to read | measurement | value |
| --- | --- | --- | --- | --- | --- | --- |
| O=C([O-])CN1CCN(CC(=O)[O-])CCN(CC(=O)c2ccc(-c3ccc(OCC(=O)O)cc3)cc2)CCN(CC(=O)[O-])CC1.[Eu+3] |  | 1 M HCl | 298 K, complex dissociation |  | dissociation rate constant | 3.6e-05 ± 2e-06 s⁻¹ |
| CC[C@H](C)[C@H](NC(=O)[C@H](CCCCN)NC(C)=O)C(=O)N[C@@H](C)C(=O)N[C@@H](C)C(=O)N[C@@H](CC(C)C)C(=O)N[C@@H](CCCCN)C(=O)N[C@@H](CCC(=O)O)C(=O)N[C@@H](CCCCN)C(=O)N[C@H](C(=O)N[C@@H](C)C(=O)N[C@@H](C)C(=O)N[C@@H](CC(C)C)C(=O)N[C@@H](CCCCN)C(=O)N[C@@H](CCC(=O)O)C(=O)N[C@@H](CCCCN)C(=O)N[C@H](C(=O)N[C@H]1CSCc2ccccc2CSC[C@@H](C(=O)NCC(=O)N[C@@H](Cc2c[nH]c3ccccc23)C(N)=O)NC(=O)[C@H](CCCCN)NC(=O)[C@H](CC(C)C)NC(=O)[C@H](C)NC1=O)[C@@H](C)CC)[C@@H](C)CC | sulforhodamine B | lipopeptide-decorated liposomes | 60 min, pH 7.4, 20 °C, up to, 1% cholesterol-PEG4 lipopeptide, 500 µM total lipid |  | content mixing | ≤ 93% |
| CCCC[C@H](NC(=O)[C@@H](NC(=O)[C@H](CC(=O)O)NC(=O)[C@H](CCC(N)=O)NC(=O)[C@H](CC(C)C)NC(=O)[C@H](CC(C)C)NC(=O)[C@H](CCCN)NC(=O)[C@H](CCCNC(=N)N)NC(=O)[C@H](C)NC(=O)[C@H](CO)NC(=O)[C@H](CC(C)C)NC(=O)[C@H](CCC(N)=O)NC(=O)[C@H](CC)NC(=O)[C@H](CC(C)C)NC(=O)[C@@H](NC(=O)[C@H](CCCN)NC(=O)[C@H](CCCNC(=N)N)NC(=O)[C@H](Cc1ccc(O)cc1)NC(=O)[C@H](CO)NC(=O)[C@H](CCC(N)=O)NC(=O)[C@@H](NC(=O)[C@H](Cc1c(F)c(F)c(F)c(F)c1F)NC(=O)[C@@H](NC(=O)[C@H](C)NC(=O)[C@H](CC(=O)O)NC(=O)[C@@H](C)NC(=O)[C@H](Cc1ccc(O)cc1)NC)[C@@H](C)CC)[C@@H](C)O)C(C)C)[C@@H](C)CC)C(=O)N[C@@H](CC(=O)O)C(=O)N[C@@H](CCCNC(=N)N)C(=O)NC | GH release | male rat, serum | subcutaneous, dose not given, 30 min | reference: GHRH(1-29)NH2 | relative potency | 148 |
| NS(=O)(=O)NCC(F)(F)c1ccccc1F | protection from scPTZ seizures | mouse | with: pentylenetetrazol 85 mg/kg s.c. |  | ED50 | 108 ± 2 mg/kg |
| CC(C)[C@@H]1NC(=O)[C@H](Cc2ccccc2)NC(=O)[C@]2(CC[C@H](c3ccccc3)CC2)NC(=O)[C@@H](N)CSSC[C@@H](C(=O)N2CCC[C@H]2C(=O)N[C@@H](CCCNC(=N)N)C(=O)NCC(N)=O)NC(=O)[C@H](CC(N)=O)NC1=O | pressor response, antagonist | phenoxybenzamine-treated male rats, urethane anaesthesia | intravenous, 1 min before AVP, with: AVP |  | pA2 | 6.85 |
| CCCC[C@H](NC(=O)[C@@H](NC(=O)[C@H](CC(=O)O)NC(=O)[C@H](CCC(N)=O)NC(=O)[C@H](CC(C)C)NC(=O)[C@H](CC(C)C)NC(=O)[C@H](CCCN)NC(=O)[C@H](CCCNC(=N)N)NC(=O)[C@H](C)NC(=O)[C@H](CO)NC(=O)[C@H](CC(C)C)NC(=O)[C@H](CCC(N)=O)NC(=O)[C@H](CC)NC(=O)[C@H](CC(C)C)NC(=O)[C@@H](NC(=O)[C@H](CCCN)NC(=O)[C@H](CCCNC(=N)N)NC(=O)[C@H](Cc1ccc(O)cc1)NC(=O)[C@H](CO)NC(=O)[C@@H](NC(=O)[C@@H](NC(=O)[C@H](Cc1ccccc1)NC(=O)[C@@H](NC(=O)[C@H](C)NC(=O)[C@H](CC(=O)O)NC(=O)[C@@H](C)NC(=O)[C@H](Cc1ccc(O)cc1)NC)[C@@H](C)CC)[C@@H](C)O)[C@@H](C)O)C(C)C)[C@@H](C)CC)C(=O)N[C@@H](CC(=O)O)C(=O)N[C@@H](CCCNC(=N)N)C(=O)NC | GH release | rat, male, serum | subcutaneous, dose not given, 15 and 30 min | reference: reference GHRH agonist JI-38 | relative potency | 1 to 4 fold |
| CCCCCCCCCCCCCCCC(=O)N[C@@H](CCCCN)C(=O)N[C@@H](CCCCN)C(=O)N[C@@H](CO)C(=O)N[C@@H](CCCNC(=N)N)C(=O)N[C@@H](C)C(=O)N[C@@H](CC(C)C)C(=O)N[C@@H](Cc1ccccc1)C(N)=O | arteriovenous shunt Dacron graft | baboon | 1 mg/kg |  | platelet-thrombus deposition | no effect |
| O=C1/C(=C/c2ccccc2)Oc2c1c(O)cc(O)c2-c1ccc(O)c(O)c1 | ABTS scavenging, absorbance |  |  |  | EC50 | 1050 µM |
| CC(C)(CCCC/C=C/CCCCCC(C)(C)C(=O)O)C(=O)O |  | golden hamsters, high-fat high-cholesterol diet | oral, 10 mg/kg, 2 weeks | reference: vehicle | serum TG, TC, LDL-C | decreased |
| BP(=O)(OP(=O)([O-])OC[C@H]1O[C@@H](n2c[n+](C)c3c(O)nc(N)nc32)[C@H](O)[C@@H]1O)OP(=O)(O)OC[C@H]1O[C@@H](n2cnc3c(=O)[nH]c(N)nc32)[C@H](O)[C@@H]1O (some centres unmarked) | cap-dependent translation | rabbit reticulocyte lysate | no cap pre-incubation | reference: m7GpppG over compound | IC50 ratio | 6.3 fold |
| CCCCCCCCN(CCC(=O)Nc1ccccc1)C(=O)c1ccccn1 |  | Lmna G609G/G609G mouse, 3-month-old | intraperitoneal, 40 mg/kg | reference: untreated | thymus size | increased |
| CCCCSc1nnc(-c2ccccc2)o1 | nitric oxide scavenging |  |  |  | IC50 | 110 ± 5.1 µM |
| CCCC[C@H](NC(=O)[C@@H](NC(=O)[C@H](CC(=O)O)NC(=O)[C@H](CCC(N)=O)NC(=O)[C@H](CC(C)C)NC(=O)[C@H](CC(C)C)NC(=O)[C@H](CCCN)NC(=O)[C@H](CCCNC(=N)N)NC(=O)[C@H](C)NC(=O)[C@H](CO)NC(=O)[C@H](CC(C)C)NC(=O)[C@H](CCC(N)=O)NC(=O)[C@H](CC)NC(=O)[C@H](CC(C)C)NC(=O)[C@@H](NC(=O)[C@H](CCCN)NC(=O)[C@H](CCCNC(=N)N)NC(=O)[C@H](Cc1ccc(O)cc1)NC(=O)[C@H](CO)NC(=O)[C@H](CCC(N)=O)NC(=O)[C@@H](NC(=O)[C@H](Cc1ccccc1)NC(=O)[C@@H](NC(=O)[C@H](C)NC(=O)[C@H](CC(=O)O)NC(=O)[C@H](C)NC(=O)[C@H](Cc1ccc(O)cc1)NC)[C@@H](C)CC)[C@@H](C)O)C(C)C)[C@@H](C)CC)C(=O)N[C@@H](CC(=O)O)C(=O)NCCCCNC(=N)N | GH release | rat, male, serum | intravenous, 1 µg/kg, 15 min | reference: reference GHRH agonist JI-38 | relative potency | 1.26 |
| N[C@@H](CO)C(=O)N1CCC[C@H]1C(=O)NCC(=O)NCC(=O)O | diketopiperazine formation, Arrhenius plot, ESI-MS | 1-propanol | 70, 80, 90 °C, 0.5% acetic acid |  | activation energy | 17.7 ± 1.2 kcal/mol |
| CCCC[C@H](NC(=O)[C@@H](NC(=O)[C@H](CC(=O)O)NC(=O)[C@H](CCC(N)=O)NC(=O)[C@H](CC(C)C)NC(=O)[C@H](CC(C)C)NC(=O)[C@H](CCCN)NC(=O)[C@H](CCCNC(=N)N)NC(=O)[C@H](C)NC(=O)[C@H](CO)NC(=O)[C@H](CC(C)C)NC(=O)[C@H](CCC(N)=O)NC(=O)[C@H](CC)NC(=O)[C@H](CC(C)C)NC(=O)[C@@H](NC(=O)[C@H](CCCN)NC(=O)[C@H](CCCNC(=N)N)NC(=O)[C@H](Cc1ccc(O)cc1)NC(=O)[C@H](CO)NC(=O)[C@H](CCC(N)=O)NC(=O)[C@@H](NC(=O)[C@H](Cc1ccccc1)NC(=O)[C@@H](NC(=O)[C@H](C)NC(=O)[C@H](CC(=O)O)NC(=O)[C@@H](C)NC(=O)[C@H](Cc1ccc(O)cc1)NC)[C@@H](C)CC)[C@@H](C)O)C(C)C)[C@@H](C)CC)C(=O)N[C@@H](CC(=O)O)C(=O)N[C@@H](CCCNC(=N)N)C(=O)NC | GH release | male rat, serum | subcutaneous, dose not given, 30 min | reference: GHRH(1-29)NH2 | relative potency | 449 |
| COc1c2c(cc3oc(COC4OC(CO)C(O)C(O)C4O)cc(=O)c13)OC(C(C)(C)O)C2 (centres unmarked) | analgesic effect | mouse | oral, 1 mg/kg, 1 h |  | hot plate latency | 9.48 ± 1.4 s |
| Cc1nc(C)c(C=[N+]([O-])C(C)(C)C)nc1C | stereological counting | mouse MPTP model, substantia nigra | 10 mg/kg | increase | TH-positive neuron count | 17% |
| CC(=O)Nc1cccc(CNC(=O)c2cnc3ccccc3c2C(F)(F)F)c1 | larval locomotion | Drosophila melanogaster Tip60 RNAi larvae | oral in food, dose not given |  | effective concentration | ≥ 1 µM |
| COc1ccc(NCc2cc(=O)c(O)c[nH]2)cc1 |  |  | 0.312 mg/mL, 20 min |  | H2O2 scavenging | 67.2 ± 1.14% |
| Cc1ccccc1-c1cc(N2CCN(C(=O)CCC(=O)O)CC2)ccc1N(C)C(=O)C(C)(C)c1cc(C(F)(F)F)cc(C(F)(F)F)c1 | mechanical allodynia, antagonist, von Frey test | hNK1R-407 mice | intrathecal, 5 µL, 30 nM, with: capsaicin |  | duration of antinociception | 6 h |
| CCOP(=O)(OCC)OCCCCOC(=O)C(C)c1ccc(CC(C)C)cc1 (centres unmarked) | immunofluorescence | rat, AOM-induced colon cancer, colon | dose not given, 40 weeks |  | β-catenin nuclear accumulation | decreased |
| CC[C@H](C)[C@@H]1NC(=O)[C@H](Cc2ccc(O)cc2)NC(=O)[C@@H](N)CSSC[C@@H](C(=O)NCC(=O)N[C@@H](CCCCNC(=O)COCCOCCNC(=O)COCCOCCNC(=O)CC[C@H](NC(=O)CC[C@H](NC(=O)CCCCCCCCCCCCCCCCC(=O)O)C(=O)O)C(=O)O)C(=O)NCC(N)=O)NC(=O)[C@H](CC(N)=O)NC(=O)[C@H](CCC(N)=O)NC1=O |  | C57BL/6 mice, diet-induced obese | subcutaneous, 2 µmol/kg daily | reference: vehicle | food intake suppression | 14% |
| CCCC[C@H](NC(=O)[C@@H](NC(=O)[C@H](CC(=O)O)NC(=O)[C@H](CCC(N)=O)NC(=O)[C@H](CC(C)C)NC(=O)[C@H](CC(C)C)NC(=O)[C@H](CCCN)NC(=O)[C@H](CCCNC(=N)N)NC(=O)[C@H](C)NC(=O)[C@H](CO)NC(=O)[C@H](CC(C)C)NC(=O)[C@H](CCC(N)=O)NC(=O)[C@H](CC)NC(=O)[C@H](CC(C)C)NC(=O)[C@@H](NC(=O)[C@H](CCCN)NC(=O)[C@H](CCCNC(=N)N)NC(=O)[C@H](Cc1ccc(O)cc1)NC(=O)[C@H](CO)NC(=O)[C@H](CC(N)=O)NC(=O)[C@@H](NC(=O)[C@H](Cc1ccccc1)NC(=O)[C@@H](NC(=O)[C@H](C)NC(=O)[C@H](CC(=O)O)NC(=O)[C@@H](CC)NC(=O)CCc1ccc(O)cc1)[C@@H](C)CC)[C@@H](C)O)C(C)C)[C@@H](C)CC)C(=O)N[C@@H](CO)C(=O)N[C@@H](CCCNC(=N)N)C(=O)NCCCC(N)=O | GH release | rat, male, serum | intravenous, 1 µg/kg, 5 min | reference: reference GHRH agonist JI-38 | relative potency | 1.55 |
| Cc1cc(O)c(C=O)c2c1C(=O)Oc1c(CO)c(O)c3c(c1O2)C(O)OC3=O (centres unmarked) | mating test | rat, male, streptozotocin-induced diabetes | 10 mg/kg |  | mating success | 83.3% |
| CCCC[C@H](NC(=O)[C@@H](NC(=O)[C@H](CC(=O)O)NC(=O)[C@H](CCC(N)=O)NC(=O)[C@H](CC(C)C)NC(=O)[C@H](CC(C)C)NC(=O)[C@H](CCCN)NC(=O)[C@H](CCCNC(=N)N)NC(=O)[C@H](C)NC(=O)[C@H](CO)NC(=O)[C@H](CC(C)C)NC(=O)[C@H](CCC(N)=O)NC(=O)[C@H](CC)NC(=O)[C@H](CC(C)C)NC(=O)[C@@H](NC(=O)[C@H](CCCN)NC(=O)[C@H](CCCNC(=N)N)NC(=O)[C@H](Cc1ccc(O)cc1)NC(=O)[C@H](CO)NC(=O)[C@H](CCC(N)=O)NC(=O)[C@@H](NC(=O)[C@H](Cc1ccccc1)NC(=O)[C@@H](NC(=O)[C@H](C)NC(=O)[C@H](CC(=O)O)NC(=O)[C@H](C)NC(=O)CCc1ccc(O)cc1)[C@@H](C)CC)[C@@H](C)O)C(C)C)[C@@H](C)CC)C(=O)N[C@@H](CC(=O)O)C(=O)N[C@@H](CCCNC(=N)N)C(=O)NC | GH release | rat, male, serum | subcutaneous, 3 µg/kg, 15 min | reference: reference GHRH agonist JI-38 | relative potency | 1.1 |
| CC[C@H]1[C@@H](O)[C@@H]2[C@H](CC[C@]3(C)[C@@H]([C@H](C)CCOS(=O)(=O)[O-])CC[C@@H]23)[C@@]2(C)CC[C@@H](O)C[C@@H]12.[Na+] |  | ob/ob NASH mouse model | oral, 10 mg/kg once daily, 8 weeks |  | body weight | 51.3 ± 1.8 g |
